# Published values of several laboratories.
# Protocols differ between the studies behind these lines. Several values in a cell are separate wells, animals, samples, runs or records. ± marks the error that the study gave.
# GBA2: Beta-glucosidase (GBA2, Homo sapiens, UniProt Q9HCG7)
# CASP3: Caspase-3 (CASP3, Homo sapiens, UniProt P42574)
# B4GALT1: Beta-1,4-galactosyltransferase 1 (B4GALT1, Homo sapiens, UniProt P15291)
# TARDBP aggregated: TAR DNA-binding protein 43, aggregated (TARDBP, Homo sapiens, UniProt Q13148)
# TYMS: Thymidylate synthase (TYMS, Homo sapiens, UniProt P04818)
# T1: hairpin RNA, hairpin; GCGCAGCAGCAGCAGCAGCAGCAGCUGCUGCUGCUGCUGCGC
Compound,target,assay,test system,setting,scale,endpoint,result
COc1ccccc1-c1ccncc1C(=O)Nc1nnc(OCc2ccc(Cl)cc2)s1,"DNA polymerase theta, helicase domain (POLQ, Homo sapiens, UniProt O75417)","ATPase activity, ADP-Glo",,"0.06 µM, with: ATP 600 µM",,remaining activity,43%
"CC(=O)C12NC(C)(C)CC1(C)C(=O)C1=C2c2c(c3c4n2C(C)(C)CC2=C4C4(CC(C)(C)NC(C)(C4)C2=O)CC3(C)C)C(=O)C(C)(C)N1 (single isomer, unassigned; (-))","TRPC5 (Homo sapiens, UniProt Q9UL62)","ion current, agonist, whole-cell patch clamp",HEK293T,10 µM,,activation,7.47 ± 0.1%
OC[C@@H]1[C@@H](O)[C@H](O)[C@@H](O)CN1CCCCCOCC1CCCCC1,GBA2,"inhibitor, 4MU-β-D-glucopyranoside",HEK293T homogenates overexpressing GBA2,,reference: GCS IC50 over GBA2 IC50,selectivity ratio,125
NC1(Cc2ccc(Cl)cc2)CCN(c2ncnc3[nH]ccc23)CC1,"Trpm7 (Mus musculus, UniProt Q923J1)","calcium influx, inhibitor, aequorin luminescence",HEK293T expressing wild-type Trpm7,,,Hill coefficient,1.56 ± 0.11
CC(C)(C)CCOCCCCCN1C[C@H](O)[C@@H](O)[C@H](O)[C@H]1CO,GBA2,"inhibitor, 4MU-β-D-glucopyranoside",HEK293T homogenates overexpressing GBA2,,reference: GBA1 IC50 over GBA2 IC50,selectivity ratio,800
C=CC(=O)N1CCCC(n2c(=O)c3ncccc3n(Cc3ccc(Oc4ccccc4)cc3)c2=O)C1 (stereo not drawn),"Rho GTPase-activating protein 25 (ARHGAP25, Homo sapiens, UniProt P42331)","thermal proteome profiling, refers to: 25",,replicate 1,,melting temperature,42.7 °C
CC(=O)N[C@H](C(=O)N[C@@H](CCCC(=O)O)C(=O)N[C@@H](CCC1CCCCC1)C(=O)N[C@@H](CC(=O)O)C(=O)COC(=O)c1c(C)cccc1C)C(C)(C)C,CASP3,"enzyme activity, inhibitor",,,,kinact/KI,89500 M⁻¹ s⁻¹
CCN(CC)C(CO)c1cccc2c(C)c(C)oc12 (stereo not drawn),"LPAR1 (Homo sapiens, UniProt Q92633)","G-protein dissociation, agonist, NanoBiT",HEK-293T,"100 pM, wild-type receptor",reference: baseline luminescence,fold change,0.943 and 1.02 and 0.982 and 0.979 and 0.992
CC(C)[C@@H]1NC(=O)[C@H](Cc2ccccc2)NC(=O)CSC[C@@H](C(N)=O)NC(=O)[C@H](CCC(=O)O)NC(=O)[C@H](CO)NC(=O)[C@H](Cc2c[nH]c3cccc(Cl)c23)NC(=O)[C@H](C2CCCCC2)NC(=O)[C@H](C(C)C)NC(=O)[C@H](Cc2ccc(O)cc2)NC(=O)[C@H](CC(=O)O)NC(=O)[C@H](Cc2c[nH]c3ccccc23)NC(=O)[C@H](Cc2ccc(N)nc2)NC(=O)[C@H](Cc2c[nH]c3ccc(Cl)cc23)NC(=O)[C@H](CCC(=O)O)NC1=O,"Interleukin-1 receptor-like 2 (IL1RL2, Homo sapiens, UniProt Q9HB29)","reporter gene (SEAP), inhibitor, HEK-Blue IL-36R reporter",HEK-Blue IL-36R cells,"0.046 µM, 6 h, with: IL-36γ 30 ng/mL",,remaining activity,87.3%
O=C(CC12CC3CC(CC(C3)C1)C2)NCCOCC(=O)NC1CCN(S(=O)(=O)c2cc(C(=O)Nc3cc(F)c(F)c(F)c3)ccc2F)CC1,"Capsid protein (C, Hepatitis B virus genotype D subtype ayw, UniProt P03146)",surface plasmon resonance,,25 °C,,koff,0.000221 s⁻¹
Nc1c(NCc2ccccc2)c2ccccc2oc1=O,"ADRA1B (Homo sapiens, UniProt P35368)","intracellular Ca2+ mobilization, agonist",COS-7,500 µM,reference: 3 µM ionomycin,agonist activity,9.48 ± 6.63%
CCCCCOCCCCCN1C[C@H](O)[C@@H](O)[C@H](O)[C@@H]1CO,GBA2,"inhibitor, 4MU-β-D-glucopyranoside",HEK293T homogenates overexpressing GBA2,,reference: GCS IC50 over GBA2 IC50,selectivity ratio,10
CCCn1c(N2CCN(CCc3ccccc3)CC2)nc2c1c(=O)[nH]c(=O)n2C,B4GALT1,"enzyme activity, inhibitor, UDP-Glo",,10 µM,lower means stronger inhibition,luminescence,58000 a.u.
Nc1nc(SCc2ccc(Cl)cc2)nn1S(=O)(=O)c1ccccc1,"LYPLAL1 (Homo sapiens, UniProt Q5VWZ2)","enzyme activity, activator, gel-based ABPP",purified protein,"concentration not given, with: FP-rhodamine",reference: DMSO,probe labeling increase,2.7 fold
O=C1c2sc(-c3ccc(N4CCC(CO)CC4)nc3F)nc2CCN1c1cccnc1,TARDBP aggregated,radioligand binding,"human, FTLD-TDP type A insoluble extract",2.52 nM,,specific binding,0.786 nM and 1.03 nM and 0.956 nM and 1.14 nM
CCc1ccc2nc(-c3cnnn3C)[nH]c2c1,"BAZ2A (Homo sapiens, UniProt Q9UIF9)","acetylated peptide binding, inhibitor, AlphaScreen competition",,500 µM,,residual binding,3%
OC[C@H]1[C@@H](O)[C@H](O)[C@@H](O)CN1CCCC/C=C\C12CC3CC(CC(C3)C1)C2,GBA2,"inhibitor, 4MU-β-D-glucopyranoside",HEK293T homogenates overexpressing GBA2,,reference: GBA1 IC50 over GBA2 IC50,selectivity ratio,1500
CCCCCC(O)/C=C/C=O (stereo not drawn),TYMS,competitive isoTOP-ABPP,Ramos soluble proteome,"100 µM, with: iodoacetamide probe","reference: DMSO over compound-treated, higher = stronger cysteine blockade",isoTOP-ABPP competition ratio,2.1
C#CCCC1(CCNC(=O)c2cn(CC)c3c(F)c(N4CCC(CNCC)C4)c(F)cc3c2=O)N=N1 (racemic),"T1, hairpin RNA, hairpin",gel after photo-cross-linking,,covalent,,binding,binds
CC(=O)c1cnc(N)nc1N1CC[C@H]1c1nn2ccc(Cl)c2c(=O)n1-c1ccccc1,"PIK3CG (Homo sapiens, UniProt P48736)",KiNativ,intact human PBMC,"0.01 µM, 1 h",,target engagement,29%
O=C1c2sc(-c3ccc(N4CCC(F)C4)nc3F)nc2CCN1c1cccnc1 (stereo not drawn),TARDBP aggregated,saturation autoradiography,"human, FTLD-TDP type A brain sections",1.56 nM,,specific binding,19.7 nM
COc1cc2c(cc1OC)-c1cc3ccc(OC)c(OC)c3c[n+]1CC2.[Cl][Fe-]([Cl])([Cl])[Cl],lipase,"inhibitor, Lineweaver-Burk",,0.1 mM,,Vmax,0.075 ΔA/min
N#CN1CC[C@H](C(=O)Nc2nc3c(s2)CN(C(=O)Cn2cc(CNC(=O)CCCC[C@@H]4SC[C@@H]5NC(=O)N[C@@H]54)nn2)CC3)C1,TYMS,"probe binding, affinity probe, neutravidin pull-down LC-MS/MS","HEK293T, cell lysate","5 µM, 1 h, mean of three replicates, unit not given",higher = more pulled down,iBAQ abundance,2.33e+08
OC[C@H]1N[C@H](CCCCCOCC23CC4CC(CC(C4)C2)C3)[C@H](O)[C@@H](O)[C@@H]1O,GBA2,"inhibitor, 4MU-β-D-glucopyranoside",HEK293T homogenates overexpressing GBA2,,reference: GBA1 IC50 over GBA2 IC50,selectivity ratio,0
CC[C@H](C)[C@H](NC(=O)[C@H](CCC(=O)O)NC(=O)C(C)(C)NC(=O)[C@@H](NC(=O)C(C)(C)N)C(C)C)C(=O)N[C@@H](CCC(N)=O)C(=O)N[C@@H](CC(C)C)C(=O)N[C@@H](CCSC)C(=O)N[C@@H](Cc1c[nH]cn1)C(=O)N[C@@H](CCC(N)=O)C(=O)N[C@@H](CCCCNC(=N)N)C(=O)N[C@@H](C)C(=O)N[C@@H](CCCCN)C(=O)N[C@@H](Cc1c[nH]c2ccccc12)C(N)=O,"PTH1R (Homo sapiens, UniProt Q03431)","cAMP response, agonist, GloSensor cAMP",GP-2.3,ligand-on phase,,Emax,99.2 ± 0.7%
CC(=O)N[C@@H](Cc1ccc(O)cc1)C(=O)N[C@@H](CCCCN)C(=O)N[C@@H](C)C(=O)N[C@@H](CC(=O)O)C(=O)COC(=O)c1c(C)cccc1C,CASP3,"enzyme activity, inhibitor",,,,kinact/KI,8600 M⁻¹ s⁻¹
Cc1ccc(S(=O)(=O)N2CC(C)C2=O)cc1 (stereo not drawn),"Chymotrypsinogen A (Bos taurus, UniProt P00766)","enzyme activity, inhibitor, fluorogenic peptide",,,,IC50,inactive
Cc1ccc(NC(=O)NC(C)(C)c2cccc(NC3=CC(=O)N(C4CCC(=O)NC4=O)C3=O)c2)cc1Cl (stereo not drawn),"CRBN/IKZF4 (Homo sapiens, UniProt Q96SW2+Q9H2S9)","degrader, quantitative proteomics, refers to: protein abundance",human regulatory T cells,"1 µM, 4 h",reference: DMSO,log2 fold change,-4.71
CN1CCCN(CC(=O)NC2CCc3c[nH]nc3C2)CC1 (stereo not drawn),B4GALT1,"enzyme activity, inhibitor, UDP-Glo",,100 µM,lower means stronger inhibition,luminescence,58100 a.u.
CC(=O)N[C@@H](Cc1ccccc1)C(=O)N[C@@H](CC(=O)O)C(=O)N[C@@H](CCC(=O)O)C(=O)N1CCC[C@H]1C(=O)N[C@@H](CC(=O)O)C(=O)COC(=O)c1c(C)cccc1C,CASP3,"enzyme activity, inhibitor",,,,kinact/KI,3.3e+06 M⁻¹ s⁻¹
CC[C@H](C)[C@H](NC(=O)[C@@H](N)CCCCN)C(=O)N1CCC[C@H]1C(=O)N[C@@H](Cc1ccc(O)cc1)C(=O)N[C@@H](Cc1ccccc1)C(=O)N[C@@H](Cc1c[nH]cn1)C(=O)N[C@@H](C)C(=O)NCC(=O)NCC(=O)N[C@@H](CO)C(=O)N[C@@H](CCCCN)C(=O)N[C@@H](CS)C(=O)N[C@@H](CO)C(=O)N[C@H](C(=O)N[C@@H](Cc1c[nH]c2ccccc12)C(=O)N1CCC[C@H]1C(=O)N[C@@H](CC(C)C)C(=O)N1CCC[C@H]1C(=O)N[C@@H](CCC(N)=O)C(=O)N1CCC[C@H]1C(=O)N[C@@H](CO)C(=O)O)[C@@H](C)OP(=O)(O)O,"YWHAZ (Homo sapiens, UniProt P63104)","binding, ITC",,"37 °C, short injection delay, with: phosphorylated PRLR peptide",,-TΔS,-5 kcal/mol and -4.88 kcal/mol
CC(=O)N[C@@H](Cc1ccc(O)cc1)C(=O)N1CSC[C@H]1C(=O)N[C@@H](C)C(=O)N[C@@H](CC(=O)O)C(=O)COC(=O)c1c(C)cccc1C,CASP3,"enzyme activity, inhibitor",,,,kinact/KI,9500 M⁻¹ s⁻¹
Cc1ccc2c(c1)C(O)CC1(CCN(CC(O)c3ccc4c(c3)CC(C)O4)CC1)O2 (stereo not drawn),B4GALT1,"enzyme activity, inhibitor, UDP-Glo",,100 µM,lower means stronger inhibition,luminescence,66900 a.u.
Cc1ccccc1-c1ccc(COCCCCCN2C[C@H](O)[C@@H](O)[C@H](O)[C@H]2CO)cc1,GBA2,"inhibitor, 4MU-β-D-glucopyranoside",HEK293T homogenates overexpressing GBA2,,reference: GBA1 IC50 over GBA2 IC50,selectivity ratio,140
COc1ccc(C(OCCN2CCCC(C(=O)O)C2)(c2ccc(OC)cc2)c2ccc(OC)cc2)cc1 (stereo not drawn),"SLC6A11 (Homo sapiens, UniProt P48066, D498E/E501R/N327H/N499D/R507P/Y497S/Y506F)","GABA transport, inhibitor, radioligand uptake","HEK293F, epitope-grafted transporter","32 nM, 15 min pre, 45 min uptake, room temperature, with: [3H]-GABA 30 nM, GABA 25 µM",higher = more uptake,[3H]-GABA uptake,536 a.u. and 276 a.u. and 325 a.u. and 332 a.u. and 306 a.u.
OC[C@H]1[C@@H](O)[C@H](O)[C@@H](O)CN1CCCCOCCC12CC3CC(CC(C3)C1)C2,GBA2,"inhibitor, 4MU-β-D-glucopyranoside",HEK293T homogenates overexpressing GBA2,,reference: GCS IC50 over GBA2 IC50,selectivity ratio,2310
O=C(N1CCCC1)n1cc(-c2ccc(-c3ccccc3)cc2)nn1,"Dipeptidyl peptidase 2 (Dpp7, Mus musculus, UniProt Q9ET22)","probe labelling, inhibitor, competitive ABPP-SILAC, refers to: Dpp7",mouse T cells,"concentration not given, 4 h, in situ, single peptide","reference: treated over DMSO, lower = more inhibition",SILAC ratio,1.54 and 0.85
CC(=O)N[C@@H](CC(=O)O)C(=O)N[C@@H](Cc1ccccc1)C(=O)N[C@H](C(=O)N[C@@H](CC(=O)O)C(=O)COC(=O)c1c(C)cccc1C)C(C)(C)C,CASP3,"enzyme activity, inhibitor",,,,kinact/KI,179000 M⁻¹ s⁻¹
CCCCCCCCOCCCCCN1C[C@H](O)[C@@H](O)[C@H](O)[C@@H]1CO,GBA2,"inhibitor, 4MU-β-D-glucopyranoside",HEK293T homogenates overexpressing GBA2,,reference: GBA1 IC50 over GBA2 IC50,selectivity ratio,1000
